Assay results of several laboratories.
Every numbered part comes from another study and shows a few of its results, in no order.
UniProt P11362, sequence (whole entry, looked up): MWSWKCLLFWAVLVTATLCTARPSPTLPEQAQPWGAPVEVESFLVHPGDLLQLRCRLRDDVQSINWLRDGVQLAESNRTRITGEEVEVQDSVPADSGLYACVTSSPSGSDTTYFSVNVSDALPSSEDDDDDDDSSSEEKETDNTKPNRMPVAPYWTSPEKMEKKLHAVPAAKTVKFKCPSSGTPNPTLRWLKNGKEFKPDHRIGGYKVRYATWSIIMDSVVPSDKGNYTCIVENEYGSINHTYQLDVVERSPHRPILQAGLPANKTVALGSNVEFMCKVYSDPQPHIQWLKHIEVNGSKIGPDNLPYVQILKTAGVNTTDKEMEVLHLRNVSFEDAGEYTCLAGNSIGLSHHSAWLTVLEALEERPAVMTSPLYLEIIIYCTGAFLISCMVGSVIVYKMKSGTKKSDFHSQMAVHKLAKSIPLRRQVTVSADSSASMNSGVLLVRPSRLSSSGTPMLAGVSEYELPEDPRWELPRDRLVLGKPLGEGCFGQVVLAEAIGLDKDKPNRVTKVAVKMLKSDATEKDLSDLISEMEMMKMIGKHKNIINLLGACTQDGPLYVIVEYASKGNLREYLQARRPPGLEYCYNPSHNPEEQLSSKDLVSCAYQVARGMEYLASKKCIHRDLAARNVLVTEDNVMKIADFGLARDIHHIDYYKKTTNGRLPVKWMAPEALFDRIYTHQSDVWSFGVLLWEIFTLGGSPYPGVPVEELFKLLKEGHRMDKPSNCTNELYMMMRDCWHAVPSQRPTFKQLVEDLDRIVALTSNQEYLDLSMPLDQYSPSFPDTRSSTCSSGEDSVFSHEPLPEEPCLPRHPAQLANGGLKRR
UniProt P27361, sequence (whole entry, looked up): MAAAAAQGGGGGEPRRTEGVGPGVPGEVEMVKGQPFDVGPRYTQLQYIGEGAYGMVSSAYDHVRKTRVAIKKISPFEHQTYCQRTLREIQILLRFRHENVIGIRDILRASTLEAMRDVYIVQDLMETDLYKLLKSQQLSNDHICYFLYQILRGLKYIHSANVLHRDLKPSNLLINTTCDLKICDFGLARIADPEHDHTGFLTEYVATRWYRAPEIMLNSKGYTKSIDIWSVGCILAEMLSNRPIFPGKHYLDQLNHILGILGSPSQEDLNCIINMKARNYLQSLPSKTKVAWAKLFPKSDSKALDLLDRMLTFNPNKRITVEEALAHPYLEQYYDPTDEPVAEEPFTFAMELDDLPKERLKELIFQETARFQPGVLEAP
UniProt P49841, sequence (whole entry, looked up): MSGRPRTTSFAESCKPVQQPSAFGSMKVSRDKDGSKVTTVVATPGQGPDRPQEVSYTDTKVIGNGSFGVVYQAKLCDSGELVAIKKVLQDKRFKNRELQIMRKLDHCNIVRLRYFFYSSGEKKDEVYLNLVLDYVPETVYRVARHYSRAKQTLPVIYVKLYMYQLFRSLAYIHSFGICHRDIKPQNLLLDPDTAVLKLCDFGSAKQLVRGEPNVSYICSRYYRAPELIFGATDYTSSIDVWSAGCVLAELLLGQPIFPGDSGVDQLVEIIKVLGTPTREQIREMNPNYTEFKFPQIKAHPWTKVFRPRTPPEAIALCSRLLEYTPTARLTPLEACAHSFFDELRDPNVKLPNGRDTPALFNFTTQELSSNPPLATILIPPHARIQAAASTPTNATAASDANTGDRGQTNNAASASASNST
UniProt P22607, sequence (whole entry, looked up): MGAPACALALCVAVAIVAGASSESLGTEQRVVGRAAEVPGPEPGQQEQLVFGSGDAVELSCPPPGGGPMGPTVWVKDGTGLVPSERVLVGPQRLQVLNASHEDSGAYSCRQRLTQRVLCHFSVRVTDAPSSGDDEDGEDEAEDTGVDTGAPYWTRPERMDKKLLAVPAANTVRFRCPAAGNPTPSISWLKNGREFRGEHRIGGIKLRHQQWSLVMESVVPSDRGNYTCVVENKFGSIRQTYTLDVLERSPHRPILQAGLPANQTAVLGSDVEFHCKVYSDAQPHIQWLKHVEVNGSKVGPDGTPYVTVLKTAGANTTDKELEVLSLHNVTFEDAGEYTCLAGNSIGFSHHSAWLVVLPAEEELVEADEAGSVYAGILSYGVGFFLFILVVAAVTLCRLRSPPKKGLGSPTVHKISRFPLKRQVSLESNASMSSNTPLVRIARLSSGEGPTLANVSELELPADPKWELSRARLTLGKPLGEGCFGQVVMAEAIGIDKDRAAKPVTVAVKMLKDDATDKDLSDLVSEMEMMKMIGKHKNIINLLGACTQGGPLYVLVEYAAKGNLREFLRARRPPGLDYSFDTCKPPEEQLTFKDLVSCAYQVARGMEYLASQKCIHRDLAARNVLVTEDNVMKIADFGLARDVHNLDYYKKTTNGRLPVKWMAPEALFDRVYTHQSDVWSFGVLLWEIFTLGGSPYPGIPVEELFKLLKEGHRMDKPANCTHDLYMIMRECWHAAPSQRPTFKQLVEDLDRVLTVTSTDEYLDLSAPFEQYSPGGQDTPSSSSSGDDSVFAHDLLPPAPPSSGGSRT
UniProt Q04912, sequence (whole entry, looked up): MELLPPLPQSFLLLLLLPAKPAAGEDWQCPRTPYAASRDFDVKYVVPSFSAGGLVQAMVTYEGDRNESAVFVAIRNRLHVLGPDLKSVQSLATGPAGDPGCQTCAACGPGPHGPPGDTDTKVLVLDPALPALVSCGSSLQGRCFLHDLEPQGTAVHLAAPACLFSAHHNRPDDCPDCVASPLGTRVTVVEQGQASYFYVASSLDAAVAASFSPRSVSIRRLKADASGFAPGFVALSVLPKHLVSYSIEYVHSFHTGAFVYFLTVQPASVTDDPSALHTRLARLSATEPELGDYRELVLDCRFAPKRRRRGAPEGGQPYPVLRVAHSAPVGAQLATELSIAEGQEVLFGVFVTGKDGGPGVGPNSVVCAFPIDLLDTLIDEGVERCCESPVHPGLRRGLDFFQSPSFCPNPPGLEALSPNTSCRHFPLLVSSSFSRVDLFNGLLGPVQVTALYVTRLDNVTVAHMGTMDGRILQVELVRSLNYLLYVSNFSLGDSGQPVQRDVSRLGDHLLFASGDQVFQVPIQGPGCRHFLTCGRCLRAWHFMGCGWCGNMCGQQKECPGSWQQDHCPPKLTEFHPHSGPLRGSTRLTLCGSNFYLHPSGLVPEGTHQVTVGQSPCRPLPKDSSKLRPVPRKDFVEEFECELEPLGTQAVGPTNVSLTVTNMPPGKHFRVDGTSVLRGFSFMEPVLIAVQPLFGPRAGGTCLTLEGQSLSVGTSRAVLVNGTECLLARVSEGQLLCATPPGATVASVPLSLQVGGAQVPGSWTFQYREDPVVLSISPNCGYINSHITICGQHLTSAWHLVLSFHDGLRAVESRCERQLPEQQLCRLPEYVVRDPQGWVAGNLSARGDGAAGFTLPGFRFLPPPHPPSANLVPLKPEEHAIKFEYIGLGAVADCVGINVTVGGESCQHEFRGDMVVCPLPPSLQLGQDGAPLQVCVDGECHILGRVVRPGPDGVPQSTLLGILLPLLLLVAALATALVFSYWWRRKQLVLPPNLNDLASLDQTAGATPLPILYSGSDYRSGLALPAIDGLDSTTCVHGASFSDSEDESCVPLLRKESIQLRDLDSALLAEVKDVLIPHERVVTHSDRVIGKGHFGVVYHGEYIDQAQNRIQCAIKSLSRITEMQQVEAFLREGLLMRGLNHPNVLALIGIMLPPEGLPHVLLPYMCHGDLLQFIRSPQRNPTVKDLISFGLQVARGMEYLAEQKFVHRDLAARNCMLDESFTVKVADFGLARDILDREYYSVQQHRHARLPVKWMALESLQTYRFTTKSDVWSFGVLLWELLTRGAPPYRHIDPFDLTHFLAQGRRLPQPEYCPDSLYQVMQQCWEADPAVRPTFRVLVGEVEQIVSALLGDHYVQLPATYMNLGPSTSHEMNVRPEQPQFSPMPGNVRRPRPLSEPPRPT
UniProt P36896, sequence (whole entry, looked up): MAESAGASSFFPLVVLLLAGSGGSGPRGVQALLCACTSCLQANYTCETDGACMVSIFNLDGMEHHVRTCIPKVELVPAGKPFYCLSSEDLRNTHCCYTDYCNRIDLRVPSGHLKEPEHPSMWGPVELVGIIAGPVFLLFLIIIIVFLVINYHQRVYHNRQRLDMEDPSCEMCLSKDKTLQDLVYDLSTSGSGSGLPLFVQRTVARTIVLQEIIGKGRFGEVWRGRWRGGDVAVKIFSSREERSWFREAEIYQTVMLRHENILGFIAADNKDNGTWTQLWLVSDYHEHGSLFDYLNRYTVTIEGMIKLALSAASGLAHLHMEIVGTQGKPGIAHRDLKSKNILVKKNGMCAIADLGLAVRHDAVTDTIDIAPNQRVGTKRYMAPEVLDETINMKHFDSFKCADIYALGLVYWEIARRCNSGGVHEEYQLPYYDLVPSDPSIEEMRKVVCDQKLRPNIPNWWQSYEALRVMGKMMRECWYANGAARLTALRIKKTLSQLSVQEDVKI
UniProt Q9HC98, sequence (whole entry, looked up): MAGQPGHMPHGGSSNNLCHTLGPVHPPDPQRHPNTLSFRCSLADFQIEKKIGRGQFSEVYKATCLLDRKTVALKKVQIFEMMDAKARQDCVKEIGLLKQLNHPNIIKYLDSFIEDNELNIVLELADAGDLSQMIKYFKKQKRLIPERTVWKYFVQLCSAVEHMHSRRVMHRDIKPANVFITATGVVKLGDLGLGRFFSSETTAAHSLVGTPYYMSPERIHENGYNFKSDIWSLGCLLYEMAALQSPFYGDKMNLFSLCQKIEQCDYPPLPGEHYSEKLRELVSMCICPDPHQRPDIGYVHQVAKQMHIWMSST

Block 1 — technique: protein-binding microarray; form: hairpin DNA; matrix: in vitro; tested at: not given; reference: not given; direction: higher = stronger binding
Target: Runt-related transcription factor 3, Runt domain (RUNX3, Homo sapiens, UniProt Q13761, residues 53-186)
UniProt Q13761, sequence (53-186, looked up): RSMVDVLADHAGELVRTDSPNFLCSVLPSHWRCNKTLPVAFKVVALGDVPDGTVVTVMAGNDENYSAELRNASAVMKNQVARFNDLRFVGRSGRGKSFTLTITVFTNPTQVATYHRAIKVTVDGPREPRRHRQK
Notes: whole hairpin DNA, median over replicate spots
Strand | median fluorescence [a.u.]
GAGGCCTGTCGCGCTTGGCCTCCTGGCCAAGCGCGACAGGCCTCACACTC (5mC at 14) | 5020
CTCAGCGCTGTGGGCTGGACTCCTGTCCAGCCCACAGCGCTGAGACACTC (5mC at 6 38) | 4420
GAGGCCCAACCGCAACTGCCTCCTGGCAGTTGCGGTTGGGCCTCACACTC | 9140
GAGGCCCAACCGAAACAGCCTCCTGGCTGTTTCGGTTGGGCCTCACACTC | 4940
GAGGCCTGTCGCGGTTGGCCTCCTGGCCAACCGCGACAGGCCTCACACTC (5mC at 41) | 6010
CTCAGTTCTGTGGGGTGGACTCCTGTCCACCCCACAGAACTGAGACACTC (5mC at 30) | 4060
GAGGCCGGTTGCGGTTGGCCTCCTGGCCAACCGCAACCGGCCTCACACTC | 10600
CTCAGTTCTCGGGGCTGGACTCCTGTCCAGCCCCGAGAACTGAGACACTC | 4520

Block 2 — technique: RNAcompete; form: RNA; matrix: in vitro; tested at: 20 nM; notes: 7-mer, probes averaged, single round; reference: mean of 7-mers; direction: higher = stronger binding
Target: PABPC1L2, full length, GST fusion (mouse, UniProt A0ABA7IW68)
Target sequence (chain): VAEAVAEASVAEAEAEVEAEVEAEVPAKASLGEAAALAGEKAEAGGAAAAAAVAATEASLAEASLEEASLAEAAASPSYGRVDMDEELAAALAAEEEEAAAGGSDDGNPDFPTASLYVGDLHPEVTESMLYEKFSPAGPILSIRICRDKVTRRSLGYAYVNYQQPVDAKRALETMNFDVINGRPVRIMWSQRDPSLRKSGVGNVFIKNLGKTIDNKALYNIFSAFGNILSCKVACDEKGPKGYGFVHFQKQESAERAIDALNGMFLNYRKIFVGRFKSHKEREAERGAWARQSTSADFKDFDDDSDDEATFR
Strand | 7-mer Z-score
UACUCAU | -0.3
UCCUCUG | -0.407
UAACUCU | -0.296
UCUUUCU | -0.498
UGUGUAG | -0.264
UCUCAUG | -0.298
GCUCCCC | -0.269
GCGCUAG | -0.119

Block 3 — effect on: enzyme activity; mode: inhibitor; tested at: 0.5 µM; reference: control
SMILES: Cn1cc(/C=C2\C(=O)Nc3ccc(S(N)(=O)=O)cc32)c2ccccc21
target | remaining activity [%]
TAOK2 (Homo sapiens, UniProt Q9UL54) | 86.4
NEK6 (Homo sapiens, UniProt Q9HC98) | 98.6
WEE1 (Homo sapiens, UniProt P30291) | 82.3
MAP2K2 (Homo sapiens, UniProt P36507) | 94.7
TEK (Homo sapiens, UniProt Q02763) | 95.8
MAPK3 (Homo sapiens, UniProt P27361) | 109
FGFR1 (Homo sapiens, UniProt P11362) | 50.2
MAP3K5 (Homo sapiens, UniProt Q99683) | 53.2
RPS6KA2 (Homo sapiens, UniProt Q15349) | 9.26
ACVR1B (Homo sapiens, UniProt P36896) | 98.4
FGFR3 (Homo sapiens, UniProt P22607) | 33.8
MST1R (Homo sapiens, UniProt Q04912) | 100
GSK3B (Homo sapiens, UniProt P49841) | 98.4

Block 4 — cell line: normal-adjacent organoid sample G; technique: CellTiter-Glo; tested at: 1 µM; notes: replicate mean; reference: DMSO
SMILES | viability [%]
O=C(O)[C@@H]1[C@@H](Cn2nnc3ccccc3c2=O)CC[C@H]1C(=O)c1ccc(OCCC2CCOCC2)cc1 | 108
C[C@@]1(Cc2ccc(C#N)cc2)C(=O)N(c2cc(Cl)cc(Cl)c2)c2ncc(C(=O)NC3(c4nc(C5CCC5)no4)CC3)n21 | 121
CCOCCn1cc(C(=O)Nc2ccc(-n3nc(-c4cccnc4)cc3C(F)(F)F)cn2)ccc1=O | 97.4
CN1CCN(C(=O)C(C)(C)c2ccc(C(=O)Nc3cn4cc(-c5cc(C(C)(C)C)cc(C(C)(C)C)c5)ccc4n3)cc2)CC1 | 107
CCc1ccccc1C(=O)Nc1n[nH]c2c(C)c(F)c(C3C(C#N)=C(C)N(C)C(C)=C3C#N)cc12 | 78.6
C[C@H](NC(=O)c1cnc2n1[C@](C)(Cc1ccc(C#N)cc1)C(=O)N2c1cc(Cl)c(F)c(Cl)c1)C(=O)NC1(c2ccccn2)CC1 | 116
O=C(Nc1cccnn1)N1CCC(=Cc2cccc(Oc3ccc(C(F)(F)F)cn3)c2)CC1 | 99
NS(=O)(=O)c1cc(NC(=O)C2(c3ccccc3Cl)CC2)ccc1Oc1cccc(Cl)c1 | 118
C[C@H](c1ccc(F)cc1)N(Cc1ccc(Cl)c(C(=O)O)c1)C(=O)c1cnc2ccccc2c1 | 109

For quick reference, copied from above (block 3):
target | remaining activity [%]
TAOK2 (Homo sapiens, UniProt Q9UL54) | 86.4
TEK (Homo sapiens, UniProt Q02763) | 95.8
FGFR1 (Homo sapiens, UniProt P11362) | 50.2
